{"data": "Experimental data gathered from unrelated publications", "T1": "PSMG3/PSMG4 heterodimer (Homo sapiens); chain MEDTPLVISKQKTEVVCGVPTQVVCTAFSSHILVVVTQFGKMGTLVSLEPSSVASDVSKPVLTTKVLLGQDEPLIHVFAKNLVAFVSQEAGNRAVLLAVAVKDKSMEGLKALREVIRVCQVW; chain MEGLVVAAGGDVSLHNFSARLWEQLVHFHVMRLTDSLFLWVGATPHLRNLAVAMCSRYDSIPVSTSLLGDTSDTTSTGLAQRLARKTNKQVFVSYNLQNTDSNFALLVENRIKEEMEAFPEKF", "B1": "POMP (Homo sapiens, UniProt Q9Y244); chain MNARGLGSELKDSIPVTELSASGPFESHDLLRKGFSCVKNELLPSHPLELSEKNFQLNQDKMNFSTLRNIQGLFAPLKLQMEFKAVQQVQRLPFLSSSNLSLDVLRGNDETIGFEDILNDPSQSEVMGEPHLMVEYKLGLL", "B2": "PSMD10 1-226 (Homo sapiens, UniProt O75832); chain MEGCVSNLMVCNLAYSGKLEELKESILADKSLATRTDQDSRTALHWACSAGHTEIVEFLLQLGVPVNDKDDAGWSPLHIAASAGRDEIVKALLGKGAQVNAVNQNGCTPLHYAASKNRHEIAVMLLEGGANPDAKDHYEATAMHRAAAKGNLKMIHILLYYKASTNIQDTEGNTPLHLACDEERVEEAKLLVSQGASIYIENKEEKTPLQVAKGGLGLILKRMVEG", "B3": "CLNS1A 2-237 (Homo sapiens, UniProt P54105); sequence looked up; chain SFLKSFPPPGPAEGLLRQQPDTEAVLNGKGLGTGTLYIAESRLSWLDGSGLGFSLEYPTISLHALSRDRSDCLGEHLYVMVNAKFEEESKEPVADEEEEDSDDDVEPITEFRFVPSDKSALEAMFTAMCECQALHPDPEDEDSDDYDGEEYDVEAHEQGQGDIPTFYTYEEGLSHLTAEGQATLERLEGMLSQSVSSQYNMAGVRTEDSIRDYEDGMEVDTTPTVAGQFEDADVDH", "B4": "TFC7 1-435 (Saccharomyces cerevisiae, UniProt Q12415); chain MVVNTIYIARHGYRSNWLPEGPYPDPLTGIDSDVPLAEHGVQQAKELAHYLLSLDNQPEAAFASPFYRCLETVQPIAKLLEIPVYLERGIGEWYRPDRKPVIPVPAGYEILSKFFPGVISQEWDSTLTPNEKGETEQEMYMRFKKFWPLFIERVEKEYPNVECILLVTHAASKIALGMSLLGYDNPRMSLNENGDKIRSGSCSLDKYEILKKSYDTIDETDDQTSFTYIPFSDRKWVLTMNGNTEFLSSGEEMNWNFDCVAEAGSDADIKKRQMTKKTSSPIPEADDQTEVETVYISVDIPSGNYKERTEIAKSAILQYSGLETDAPLFRIGNRLYEGSWERLVGTELAFPNAAHVHKKTAGLLSPTEENETTNAGQSKGSSTANDPNIQIQEEDVGLPDSTNTSRDHTGDKEEVQSEKIYRIKERIVLSNVRPM", "B5": "POL30 1-258 (Saccharomyces cerevisiae, UniProt P15873); chain MLEAKFEEASLFKRIIDGFKDCVQLVNFQCKEDGIIAQAVDDSRVLLVSLEIGVEAFQEYRCDHPVTLGMDLTSLSKILRCGNNTDTLTLIADNTPDSIILLFEDTKKDRIAEYSLKLMDIDADFLKIEELQYDSTLSLPSSEFSKIVRDLSQLSDSINIMITKETIKFVADGDIGSGSVIIKPFVDMEHPETSIKLEMDQPVDLTFGAKYLLDIIKGSSLSDRVGIRLSSEAPALFQFDLKSGFLQFFLAPKFNDEE", "B6": "ND2 1-469 (Yarrowia lipolytica, UniProt Q9B6C8); sequence looked up; chain MLILAIISLITFVSMSKLSDNRAIIRLINIYLILVLVLDSFLYLLFLNNQTYTVMGELLIFNSFTFYIDMLIYFIMIVISSLYGYNLYNNNLYKTLFEPKKELIILFLINILGALLIVHSNDFITLFVAIELQSYSIYLITAIYNSSYKASKASMLYFFMGGILSILIAYSINTYYSVLNSYTLHSLDSLIINTLDLNLILIALSLGLLFKIGIAPLHKWLISIYENTPILITIYISLIPKISILSYLVLSNISINSLVISILAILTLLVGSVGGLLQIKIKRLLAFSGLTNAGYMMLLLLLNNNEFSYLYYITQYSISHLAIFMIIIFSIYYINYINNQYNPIIYVNQLKGLIHDNAYLVLSMAIVVFSFIGIPPLLGFFGKLNILMSILNNGYYFISIVLIVASLISALYYLYLLNVSIQDKNNILINSNETVSSVLSYILSSLIILITFGFIYNSLIIDIFNVYFN", "B7": "mel-28 954-1189 (Caenorhabditis elegans, UniProt Q18508); sequence looked up; chain PEVFASVNDKTERKRKSSQFGEDDESSVSSSQYVPPTAKRIQQWKSAVESVANNSSINSITSPDSHQNAEINMMIATPARYYKRHNEEENVQDGFLSPAGNRPPPVSAHNSILKTAKGGQSASRGRIRFRADVPRGADESIEDNGRKGLALNFAILEDEEEETMTIRKSRSMGKHDEEKDSEKNVVDEMEEVKDQEQENDECIESEKTFENQDDFEVLEDTSAPEAANTENGSETP", "B8": "TOMM20 cytosolic domain, 62-127 Q105E (Homo sapiens, UniProt Q15388); chain CDAEAVQKFFLEEIQLGEELLAQGEYEKGVDHLTNAIAVCGQPQELLQVLQQTLPPPVFQMLLTKLP", "B9": "ATG9 1-100 (Saccharomyces cerevisiae, UniProt Q12142); sequence looked up; chain MERDEYQLPNSHGKNTFLSRIFGLQSDEVNPSLNSQEMSNFPLPDIERGSSLLHSTNDSREDVDENDLRVPESDQGTSTEEEDEVDEEQVQAYAPQISDG", "B10": "AEBP2 407-517 (Homo sapiens, UniProt Q6ZN18); sequence looked up; chain RHRAICFNLSAHIESLGKGHSVVFHSTVIAKRKEDSGKIKLLLHWMPEDILPDVWVNESERHQLKTKVVHLSKLPKDTALLLDPNIYRTMPQKRLKRTLIRKVFNLYLSKQ", "B11": "SAMP2 1-69 (Pyrococcus furiosus, UniProt Q8U1Z3); sequence looked up; chain MKMIKVKVIGRNIEKEIEWREGMKVRDILRAVGFNTESAIAKVNGKVVLEDDEVKDGDFVEVIPVVSGG", "B12": "ELM1 421-640 (Saccharomyces cerevisiae, UniProt P32801); sequence looked up; chain SSSSVNPVRNEGPVRRFFGRLLTKKGKKKTSGKGKDKVLVSATSKVTPSIHIDEEPDKECFSTTVLRSSPDSSDYCSSLGEEAIQVTDFLDTFCRSNESLPNLTVNNDKQNSDMKTDRSESSSHSSLKIPTPIKAMIRLKSSPKENGNRTHINCSQDKPSSPLMDRTVGKRTVNNSGARKLAHSSNILNFKAYINSEDSDIRETVEDVKTYLNFADNGQI", "B13": "ARHGEF12 32-190 (Homo sapiens, UniProt Q9NZN5); sequence looked up; chain KKQKVERIASHDFDPTDSSSKKTKSSSEESRSEIYGLVQRCVIIQKDDNGFGLTVSGDNPVFVQSVKEDGAAMRAGVQTGDRIIKVNGTLVTHSNHLEVVKLIKSGSYVALTVQGRPPGSPQIPLADSEVEPSVIGHMSPIMTSPHSPGASGNMERITS", "B14": "CDC5 (Saccharomyces cerevisiae, UniProt P32562); sequence looked up; chain MSLGPLKAINDKQLNTRSKLVHTPIKGNTADLVGKENHFKQTKRLDPNNDHHHQPAQKKKREKLSALCKTPPSLIKTRGKDYHRGHFLGEGGFARCFQIKDDSGEIFAAKTVAKASIKSEKTRKKLLSEIQIHKSMSHPNIVQFIDCFEDDSNVYILLEICPNGSLMELLKRRKVLTEPEVRFFTTQICGAIKYMHSRRVIHRDLKLGNIFFDSNYNLKIGDFGLAAVLANESERKYTICGTPNYIAPEVLMGKHSGHSFEVDIWSLGVMLYALLIGKPPFQARDVNTIYERIKCRDFSFPRDKPISDEGKILIRDILSLDPIERPSLTEIMDYVWFRGTFPPSIPSTVMSEAPNFEDIPEEQSLVNFKDCMEKSLLLESMSSDKIQRQKRDYISSIKSSIDKLEEYHQNRPFLPHSLSPGGTKQKYKEVVDIEAQRRLNDLAREARIRRAQQAVLRKELIATSTNVIKSEISLRILASECHLTLNGIVEAEAQYKMGGLPKSRLPKIKHPMIVTKWVDYSNKHGFSYQLSTEDIGVLFNNGTTVLRLADAEEFWYISYDDREGWVASHYLLSEKPRELSRHLEVVDFFAKYMKANLSRVSTFGREEYHKDDVFLRRYTRYKPFVMFELSDGTFQFNFKDHHKMAISDGGKLVTYISPSHESTTYPLVEVLKYGEIPGYPESNFREKLTLIKEGLKQKSTIVTVD", "note": "Each line is one published result; not all experiments were run side by side."}
{"Substance": "HEEWEMVPRHS (STBD1 200-210 (Homo sapiens, UniProt O95210))", "partner": "MAP1LC3A (Homo sapiens, UniProt Q9H492)", "test": "ITC", "binding": "binds"}
{"Substance": "B1 (POMP)", "partner": "T1, PSMG3/PSMG4 heterodimer (Homo sapiens)", "test": "cryo-EM", "binding": "binds"}
{"Substance": "B2 (PSMD10 1-226)", "partner": "Mdm2 (Mus musculus, UniProt P23804)", "test": "pull-down", "binding": "binds"}
{"Substance": "B3 (CLNS1A 2-237)", "partner": "PRMT5/WDR77 full length, octamer (Homo sapiens)", "test": "SEC", "binding": "binds"}
{"Substance": "B4 (TFC7 1-435)", "partner": "TFC1 1-649 (Saccharomyces cerevisiae, UniProt P32367)", "test": "cryo-EM", "binding": "binds"}
{"Substance": "gene 32 protein (Enterobacteria phage T4, UniProt P03695)", "partner": "Dda helicase (bacteriophage T4, UniProt P32270)", "test": "EMSA", "binding": "binds"}
{"Substance": "B5 (POL30 1-258)", "partner": "RAD30 (Saccharomyces cerevisiae, UniProt Q04049)", "test": "ELISA", "binding": "binds"}
{"Substance": "B6 (ND2 1-469)", "partner": "ND5 1-655 (Yarrowia lipolytica, UniProt Q9B6D3)", "test": "cryo-EM", "binding": "binds"}
{"Substance": "B7 (mel-28 954-1189)", "partner": "gsp-2 (Caenorhabditis elegans, UniProt P48727)", "test": "pull-down", "binding": "binds"}
{"Substance": "B8", "partner": "Fem1b (Mus musculus, UniProt Q9Z2G0)", "test": "fluorescence polarisation", "binding": "binds"}
{"Substance": "B9 (ATG9 1-100)", "partner": "ATG23 A377E (Saccharomyces cerevisiae, UniProt Q06671)", "test": "pull-down", "setting": "15 minutes, 4 °C", "binding": "binds"}
{"Substance": "B10 (AEBP2 407-517)", "partner": "SUZ12/RBBP4 SUZ12 76-545 (Homo sapiens)", "test": "SEC", "binding": "binds"}
{"Substance": "B11 (SAMP2 1-69)", "partner": "PF1070 1-140 del2-11 (Pyrococcus furiosus, UniProt Q8U1Y4)", "test": "crystal structure", "setting": "293 K", "binding": "binds"}
{"Substance": "KESALRKQDLLLLFDPLLR (TACC3 to 568 550-568 S558D/Y560L/K562L (Homo sapiens, UniProt Q9Y6A5); sequence looked up)", "partner": "CLTC 358-574 (Homo sapiens, UniProt Q00610)", "test": "peptide array", "test system": "peptide", "binding": "binds"}
{"Substance": "mecA (Bacillus subtilis, UniProt P37958)", "partner": "clpC E280A/E618A (Bacillus subtilis, UniProt P37571)", "test": "SEC", "setting": "added: ATP", "binding": "binds"}
{"Substance": "ARHGEF40 (Homo sapiens, UniProt Q8TER5)", "partner": "ARHGEF11 Y885A (Homo sapiens, UniProt O15085)", "test": "co-IP", "binding": "binds"}
{"Substance": "B12 (ELM1 421-640)", "partner": "GIN4 (Saccharomyces cerevisiae, UniProt Q12263)", "test": "pull-down", "binding": "binds"}
{"Substance": "B9 (ATG9 1-100)", "partner": "Atg23 full-length, dimer (yeast, UniProt Q06671)", "test": "pull-down", "setting": "5 µM, 15 min, pH 8, 4 °C, NaCl 150 mM", "binding": "binds"}
{"Substance": "B13 (ARHGEF12 32-190)", "partner": "IGF1R 899-1367 (Homo sapiens, UniProt P08069)", "test": "pull-down", "binding": "binds"}
{"Substance": "VANFSTDVGLRWQS (cnp1 60-73 (Schizosaccharomyces pombe, UniProt Q9Y812))", "partner": "mis15 1-249 (Schizosaccharomyces pombe, UniProt Q9C0W0)", "test": "native gel", "test system": "peptide", "binding": "binds"}
{"Substance": "secB (Escherichia coli, UniProt P0AG86)", "partner": "SecA dimer (UniProt P10408)", "test": "SEC-MALS", "binding": "binds"}
{"Substance": "B14 (CDC5)", "partner": "STU2 (Saccharomyces cerevisiae, UniProt P46675)", "test": "pull-down", "binding": "binds"}
{"note": "Repeated from above:"}
{"Substance": "B2 (PSMD10 1-226)", "partner": "Mdm2 (Mus musculus, UniProt P23804)", "test": "pull-down", "binding": "binds"}
{"Substance": "B3 (CLNS1A 2-237)", "partner": "PRMT5/WDR77 full length, octamer (Homo sapiens)", "test": "SEC", "binding": "binds"}
